Assay results from different studies.
A part holds a random share of what one study measured. Changes are numbered by the printed parent chain.
UniProt Q96GD4, sequence (whole entry, looked up): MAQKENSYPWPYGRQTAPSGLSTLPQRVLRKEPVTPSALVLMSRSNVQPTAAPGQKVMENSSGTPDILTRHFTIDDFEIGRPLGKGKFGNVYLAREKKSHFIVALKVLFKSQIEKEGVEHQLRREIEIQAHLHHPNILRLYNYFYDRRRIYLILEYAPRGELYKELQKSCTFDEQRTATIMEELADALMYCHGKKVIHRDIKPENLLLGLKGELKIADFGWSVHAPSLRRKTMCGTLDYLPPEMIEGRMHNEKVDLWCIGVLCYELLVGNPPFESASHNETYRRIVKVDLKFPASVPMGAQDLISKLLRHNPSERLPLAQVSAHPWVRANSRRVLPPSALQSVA
UniProt Q02763, sequence (whole entry, looked up): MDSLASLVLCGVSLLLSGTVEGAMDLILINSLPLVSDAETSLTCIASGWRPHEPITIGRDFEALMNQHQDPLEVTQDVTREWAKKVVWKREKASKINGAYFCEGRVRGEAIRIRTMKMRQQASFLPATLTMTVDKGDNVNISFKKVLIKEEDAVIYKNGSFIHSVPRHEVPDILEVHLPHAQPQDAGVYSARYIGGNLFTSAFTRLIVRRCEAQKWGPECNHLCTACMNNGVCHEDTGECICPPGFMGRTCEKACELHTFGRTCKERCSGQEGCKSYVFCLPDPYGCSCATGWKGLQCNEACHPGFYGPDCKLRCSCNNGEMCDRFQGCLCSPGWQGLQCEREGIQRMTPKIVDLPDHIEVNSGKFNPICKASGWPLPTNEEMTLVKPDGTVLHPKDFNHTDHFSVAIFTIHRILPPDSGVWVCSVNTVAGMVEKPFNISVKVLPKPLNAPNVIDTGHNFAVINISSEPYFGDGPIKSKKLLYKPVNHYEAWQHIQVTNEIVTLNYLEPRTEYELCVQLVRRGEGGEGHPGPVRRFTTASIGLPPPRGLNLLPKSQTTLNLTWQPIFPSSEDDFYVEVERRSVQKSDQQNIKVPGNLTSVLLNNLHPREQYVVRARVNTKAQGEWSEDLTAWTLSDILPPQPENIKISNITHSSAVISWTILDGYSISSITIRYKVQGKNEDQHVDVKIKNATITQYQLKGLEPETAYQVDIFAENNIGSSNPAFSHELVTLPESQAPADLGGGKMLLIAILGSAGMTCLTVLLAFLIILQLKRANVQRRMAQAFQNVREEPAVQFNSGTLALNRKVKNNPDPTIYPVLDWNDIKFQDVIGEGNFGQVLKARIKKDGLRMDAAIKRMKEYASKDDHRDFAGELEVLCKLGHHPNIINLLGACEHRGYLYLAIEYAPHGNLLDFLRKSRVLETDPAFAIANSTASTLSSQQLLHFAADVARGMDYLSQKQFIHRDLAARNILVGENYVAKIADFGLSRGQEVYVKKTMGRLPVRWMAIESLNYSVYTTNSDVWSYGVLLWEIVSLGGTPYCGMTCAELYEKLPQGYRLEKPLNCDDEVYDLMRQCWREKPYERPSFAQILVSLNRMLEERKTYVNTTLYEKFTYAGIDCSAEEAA
UniProt P57078, sequence (whole entry, looked up): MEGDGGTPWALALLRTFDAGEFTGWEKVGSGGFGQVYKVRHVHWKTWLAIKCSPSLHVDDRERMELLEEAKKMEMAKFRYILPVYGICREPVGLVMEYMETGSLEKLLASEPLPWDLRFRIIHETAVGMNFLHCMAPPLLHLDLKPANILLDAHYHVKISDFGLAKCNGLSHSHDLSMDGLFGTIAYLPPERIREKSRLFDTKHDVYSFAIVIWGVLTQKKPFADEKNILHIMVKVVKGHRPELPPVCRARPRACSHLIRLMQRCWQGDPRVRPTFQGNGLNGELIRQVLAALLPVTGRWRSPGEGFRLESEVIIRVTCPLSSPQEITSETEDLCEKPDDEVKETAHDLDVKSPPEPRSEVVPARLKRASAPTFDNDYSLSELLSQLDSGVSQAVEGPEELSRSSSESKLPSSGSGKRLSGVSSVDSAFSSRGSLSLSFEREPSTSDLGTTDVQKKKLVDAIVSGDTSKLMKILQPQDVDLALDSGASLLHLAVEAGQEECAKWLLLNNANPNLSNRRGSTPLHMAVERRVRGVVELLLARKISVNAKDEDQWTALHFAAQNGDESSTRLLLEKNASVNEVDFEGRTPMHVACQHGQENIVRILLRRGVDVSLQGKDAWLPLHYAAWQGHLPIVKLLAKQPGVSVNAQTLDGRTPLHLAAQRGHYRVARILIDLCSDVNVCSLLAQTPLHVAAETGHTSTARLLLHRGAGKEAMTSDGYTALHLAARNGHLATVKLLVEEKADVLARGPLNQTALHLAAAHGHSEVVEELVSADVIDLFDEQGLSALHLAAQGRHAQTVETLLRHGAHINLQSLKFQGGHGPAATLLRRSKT
UniProt P35968, sequence (whole entry, looked up): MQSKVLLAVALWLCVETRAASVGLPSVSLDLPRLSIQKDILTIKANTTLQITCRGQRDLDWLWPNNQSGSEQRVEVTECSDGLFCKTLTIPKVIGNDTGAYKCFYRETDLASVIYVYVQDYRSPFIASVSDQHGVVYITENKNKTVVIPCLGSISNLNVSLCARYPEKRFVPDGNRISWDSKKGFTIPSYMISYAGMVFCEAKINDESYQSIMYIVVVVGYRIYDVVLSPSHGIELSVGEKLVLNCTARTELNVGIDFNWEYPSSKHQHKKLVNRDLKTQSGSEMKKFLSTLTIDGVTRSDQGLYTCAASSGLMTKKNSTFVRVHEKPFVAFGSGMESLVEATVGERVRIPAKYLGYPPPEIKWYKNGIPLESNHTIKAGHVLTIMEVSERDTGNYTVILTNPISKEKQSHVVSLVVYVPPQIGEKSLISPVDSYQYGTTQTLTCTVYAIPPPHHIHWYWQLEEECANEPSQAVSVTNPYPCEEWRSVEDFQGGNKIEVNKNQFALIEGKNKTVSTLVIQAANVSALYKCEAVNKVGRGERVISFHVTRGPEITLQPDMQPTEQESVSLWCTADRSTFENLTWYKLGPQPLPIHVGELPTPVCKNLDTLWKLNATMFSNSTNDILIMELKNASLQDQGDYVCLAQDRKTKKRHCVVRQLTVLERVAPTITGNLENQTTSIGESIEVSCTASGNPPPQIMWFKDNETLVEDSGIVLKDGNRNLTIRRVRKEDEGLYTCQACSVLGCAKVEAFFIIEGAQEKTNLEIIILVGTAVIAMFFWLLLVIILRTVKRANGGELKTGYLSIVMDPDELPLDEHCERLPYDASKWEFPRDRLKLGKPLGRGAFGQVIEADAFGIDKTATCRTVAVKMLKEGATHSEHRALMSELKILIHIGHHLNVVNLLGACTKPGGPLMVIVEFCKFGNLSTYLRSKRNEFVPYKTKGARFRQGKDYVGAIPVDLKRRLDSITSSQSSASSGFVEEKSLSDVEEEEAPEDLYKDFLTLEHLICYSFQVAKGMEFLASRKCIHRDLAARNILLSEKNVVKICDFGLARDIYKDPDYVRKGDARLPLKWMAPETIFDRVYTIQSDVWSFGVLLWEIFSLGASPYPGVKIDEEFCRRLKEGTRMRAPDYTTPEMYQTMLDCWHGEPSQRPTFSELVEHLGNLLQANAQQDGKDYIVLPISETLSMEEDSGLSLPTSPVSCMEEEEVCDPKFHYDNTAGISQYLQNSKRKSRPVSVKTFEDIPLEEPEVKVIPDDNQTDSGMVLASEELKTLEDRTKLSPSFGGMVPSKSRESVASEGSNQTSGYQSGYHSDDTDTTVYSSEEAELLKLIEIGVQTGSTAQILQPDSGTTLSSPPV
UniProt P29320, sequence (whole entry, looked up): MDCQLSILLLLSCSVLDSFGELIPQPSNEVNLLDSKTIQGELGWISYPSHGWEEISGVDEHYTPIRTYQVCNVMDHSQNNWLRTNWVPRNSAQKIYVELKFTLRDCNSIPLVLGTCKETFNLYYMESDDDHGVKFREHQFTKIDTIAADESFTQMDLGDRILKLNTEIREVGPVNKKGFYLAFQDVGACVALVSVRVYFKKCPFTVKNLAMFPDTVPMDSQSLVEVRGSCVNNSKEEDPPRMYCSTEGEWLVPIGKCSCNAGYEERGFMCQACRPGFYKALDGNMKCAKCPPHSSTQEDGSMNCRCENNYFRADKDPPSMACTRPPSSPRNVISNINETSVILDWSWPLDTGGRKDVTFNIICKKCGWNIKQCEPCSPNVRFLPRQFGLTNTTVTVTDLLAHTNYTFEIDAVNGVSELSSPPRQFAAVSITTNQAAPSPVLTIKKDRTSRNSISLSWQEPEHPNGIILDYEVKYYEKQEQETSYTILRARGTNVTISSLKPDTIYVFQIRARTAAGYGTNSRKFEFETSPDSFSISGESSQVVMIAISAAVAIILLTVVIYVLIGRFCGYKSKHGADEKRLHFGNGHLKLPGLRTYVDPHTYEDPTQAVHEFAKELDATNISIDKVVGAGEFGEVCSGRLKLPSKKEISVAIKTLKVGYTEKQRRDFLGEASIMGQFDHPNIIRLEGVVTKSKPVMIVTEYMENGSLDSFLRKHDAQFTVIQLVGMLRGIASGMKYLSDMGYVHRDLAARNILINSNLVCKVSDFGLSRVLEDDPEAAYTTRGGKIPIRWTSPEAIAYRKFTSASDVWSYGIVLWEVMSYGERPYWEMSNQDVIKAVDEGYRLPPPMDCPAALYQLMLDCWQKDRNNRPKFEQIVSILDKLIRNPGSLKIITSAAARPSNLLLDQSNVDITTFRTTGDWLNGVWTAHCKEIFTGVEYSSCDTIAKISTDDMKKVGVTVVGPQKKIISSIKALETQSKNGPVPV
UniProt Q9Y6M4, sequence (whole entry, looked up): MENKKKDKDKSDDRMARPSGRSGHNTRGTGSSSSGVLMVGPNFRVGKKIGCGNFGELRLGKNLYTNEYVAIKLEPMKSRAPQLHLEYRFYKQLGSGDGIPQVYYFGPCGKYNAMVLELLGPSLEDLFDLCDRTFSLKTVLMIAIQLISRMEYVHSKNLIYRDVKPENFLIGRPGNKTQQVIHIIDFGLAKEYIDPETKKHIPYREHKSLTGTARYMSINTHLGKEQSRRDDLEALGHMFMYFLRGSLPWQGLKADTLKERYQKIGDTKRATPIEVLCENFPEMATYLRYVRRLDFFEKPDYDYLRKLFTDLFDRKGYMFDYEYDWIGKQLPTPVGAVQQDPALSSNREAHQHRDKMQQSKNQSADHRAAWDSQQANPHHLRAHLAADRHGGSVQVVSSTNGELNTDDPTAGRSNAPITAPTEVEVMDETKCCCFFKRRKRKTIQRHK

Series 1
SMILES: CC(C)(C)n1nc(Cc2cccc3ccccc23)c2c(N)ncnc21
Read-out: enzyme activity
Action: inhibitor
Concentration: 0.5 µM
Baseline: control
It gave 102% for remaining activity (Dual specificity mitogen-activated protein kinase kinase 2 (MAP2K2, Homo sapiens, UniProt P36507)).
The remaining activity was 101% (Casein kinase I isoform gamma-3 (CSNK1G3, Homo sapiens, UniProt Q9Y6M4)).
For Serine/threonine-protein kinase TBK1 (TBK1, Homo sapiens, UniProt Q9UHD2): remaining activity read 99.4%.
It gave 92% for remaining activity (Mitogen-activated protein kinase 3 (MAPK3, Homo sapiens, UniProt P27361)).
It gave 94.6% for remaining activity (Fibroblast growth factor receptor 3 (FGFR3, Homo sapiens, UniProt P22607)).
It gave 97.3% for remaining activity (Serine/threonine-protein kinase ULK3 (ULK3, Homo sapiens, UniProt Q6PHR2)).
Ribosomal protein S6 kinase alpha-2 (RPS6KA2, Homo sapiens, UniProt Q15349) — remaining activity: 88.2%.
The remaining activity was 80.5% (Ephrin type-A receptor 3 (EPHA3, Homo sapiens, UniProt P29320)).
Tyrosine-protein kinase FRK (FRK, Homo sapiens, UniProt P42685) — remaining activity: 57.7%.
For Activin receptor type-1B (ACVR1B, Homo sapiens, UniProt P36896): remaining activity read 104%.
Rhodopsin kinase GRK7 (GRK7, Homo sapiens, UniProt Q8WTQ7) — remaining activity: 106%.
The remaining activity was 84.6% (Wee1-like protein kinase (WEE1, Homo sapiens, UniProt P30291)).
It gave 99.7% for remaining activity (Angiopoietin-1 receptor (TEK, Homo sapiens, UniProt Q02763)).
It gave 89.3% for remaining activity (Serine/threonine-protein kinase TAO2 (TAOK2, Homo sapiens, UniProt Q9UL54)).

Series 2
Target: Max-binding protein MNT, bHLH-zipper, MAX partner unstated (MNT, Homo sapiens, UniProt Q99583, residues 220-300)
Method: protein-binding microarray
Form: double-stranded DNA, one strand shown
Medium: in vitro
Concentration: not given
Setting: k-mer, scored over probes, only values ≥0.25
Direction: higher = stronger binding
Construct (chain): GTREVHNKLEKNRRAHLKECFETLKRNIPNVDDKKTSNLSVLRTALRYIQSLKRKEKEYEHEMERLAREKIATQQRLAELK
With `CATCACGC` the E-score was 0.338.
For `GCGGGCAC`, the E-score was 0.258.
With `ATACCCCA` the E-score was 0.261.
For `ACGTGCCC`, the E-score was 0.447.
For `ACGCGTGC`, the E-score was 0.446.
The E-score of `CGTGGCTA` is reported as 0.38.
`ACGTGAAG` gave an E-score of 0.335.
`ACGCATTG` has an E-score of 0.256.

Series 3
SMILES: C[C@H](c1ccc(F)cc1)N(Cc1cccc(C(=O)O)c1)C(=O)c1cnc2ccccc2c1
Read-out: cell-free assay
Method: competition with immobilised ligand
Concentration: 1 µM
It gave 100% for remaining binding (Receptor-interacting serine/threonine-protein kinase 4 (RIPK4, Homo sapiens, UniProt P57078)).
Serine/threonine-protein kinase Nek7 (NEK7, Homo sapiens, UniProt Q8TDX7) — remaining binding: 100%.
It gave 100% for remaining binding (Aurora kinase B (AURKB, Homo sapiens, UniProt Q96GD4)).
It gave 100% for remaining binding (Vascular endothelial growth factor receptor 2 (KDR, Homo sapiens, UniProt P35968)).

Series 4
Target: CEBPD, bZIP domain (human)
Method: DHFR protein complementation
Medium: yeast
Setting: single substitutions, most at no-binding floor
Baseline: wild-type JUN-FOS pair
Direction: higher = stronger binding
Parent: JUN, bZIP domain (human); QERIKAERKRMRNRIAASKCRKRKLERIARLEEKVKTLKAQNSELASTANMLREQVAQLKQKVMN; partner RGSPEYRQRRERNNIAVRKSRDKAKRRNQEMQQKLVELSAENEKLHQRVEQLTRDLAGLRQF
The binding fitness of `L38D` is reported as -1.49 natural log.
For `A29S`, the binding fitness was -1.32 natural log.
`A46N` has a binding fitness of -1.38 natural log.
For `I28A`, the binding fitness was -1.35 natural log.
`M51G` gave a binding fitness of -1.39 natural log.
For `K36A`, the binding fitness was -1.34 natural log.
For `V35L`, the binding fitness was -1.25 natural log.
With `E32V` the binding fitness was -1.3 natural log.

For quick reference, copied from above (series 4):
The binding fitness of `L38D` is reported as -1.49 natural log.
For `I28A`, the binding fitness was -1.35 natural log.
For `K36A`, the binding fitness was -1.34 natural log.
